Results gathered from unrelated publications.
Each line is one published result; not all experiments were run side by side. “And” joins repeats or separate records; there may be more than shown. Numbers after ± are the reported error.

`CN(C)C(=O)Oc1cccc([N+](C)(C)C)c1` has a train-of-four ratio of 3.96 (neuromuscular block reversal; rat; dose not given, 1 (unit not given), with: cisatracurium; reference: T1 twitch).
For `C=Cc1c(C)c2cc3nc(c(CC(=O)O)c4[nH]c(cc5nc(cc1[nH]2)C(C)=C5CC)c(C)c4C(=O)O)[C@@H](CCC(=O)O)[C@@H]3C`, the Treg cells was 5.48% and 5.39% and 5.13% (flow cytometry; mouse, 4T1 tumour-bearing; dose not given, 1 h).
For `CN(C)S(=O)(=O)CCNCc1cccc2ncccc12`, “mechanical withdrawal threshold” read “no effect” (von Frey test; mouse, spared nerve injury model; intrathecal, dose not given, 30 min, ipsilateral paw, 20% ethanol vehicle; reference: vehicle).
`CC(C)[C@H](C(=O)Nc1ccc(C(=O)NO)cc1)c1ccccc1` gave a tumour volume of 0.111 cm³ (MRI volumetry; human, left parieto-occipital meningioma; dose not given, day 1512 post-treatment).
For `CCc1cnc(NC(=O)c2cc(S(=O)(=O)N3CCOCC3)ccc2N(C)C2CCCC2)s1`, the survival was 60% (mouse H1975-OR xenograft; dose not given, 90 days, tumour below 500 mm^3).
For `COc1ccc(-c2cncc(N[C@@H](C)c3cccc(NC(=O)c4cncc(C)c4)c3)n2)cc1OC`, “delta delta Ct” read 0.522 (item: rno-miR-211-5p; rat SU5416/hypoxia model, lung; dose not given, unit not given; reference: SU5416/hypoxia vehicle).
The plasma level of `N#Cc1ccc2c(c1)[C@H]1CCCN(C(=O)c3ccc4[nH]cnc4c3)[C@H]1C2` is reported as 270 nmol/L (item: cortisol; human, Phase II trial; oral, 240 mg once daily, last treatment, HPA axis, mean).
`COc1nnc2ccc(N3CCC(c4ccc(OCCN5CCN(C)C(=O)[C@H]5C)cc4)CC3)nn12` — result for “time above HEXIM1 threshold”: 1.04 h (human patients; 5 mg once daily, 1.5-fold above baseline).
`N#Cc1ccc2c(-c3ccncc3)c(-c3ccc(F)cc3)nn2c1`: “log2 fold change” 0.155 (kinase binding, competitor, MIB/MS competition, item: FPK1; Candida albicans cell lysate; 100 nM; reference: DMSO).
For `COc1ccc2c(c1)CN(Cc1ccc(C(=O)O)cc1)CCS2`, “forelimb grip strength” read 0.173 ± 0.007 kgf (exercised mdx mice; 10 mg/kg, 2 weeks).
Under PPAR-gamma expression, `CCc1c(C)nc(-c2ccc(Cl)s2)nc1Nc1ccc(CC(=O)O)cc1` is recorded as “decreased” (C57BL/6J mouse, high-fat diet MASH model, liver; intraperitoneal, 0.3 mg/kg daily, 60% fat diet for 12 weeks, dosed final four weeks; reference: untreated).
`OC(CCN1CCCCC1)(c1ccccc1)C1CC2C=CC1C2` (stereo not drawn) — result for “change in EEG Beta3-power Pz-O2”: 3.5% (resting-state EEG; healthy elderly humans; oral, 4 mg, eyes closed, LS mean; reference: baseline).
For `C=C1CC[C@H](OCCCNC(=O)CCOCCOCCOCCOCCOCCOCCOCCOCCOCCOCCOCCOCCOCCOCCOCCOCCOCCOCCOCCOCCOCCOCCOCCOCCOCCOCCOCCOCCOCCOCCOCCOCCOCCOCCOCCOCCNC(=O)CCN2C(=O)CC(SC[C@H](NC(=O)[C@H](CCCNC(=N)N)NC(=O)[C@@H]3CCCN3C(=O)[C@H](CCC(N)=O)NC(=O)[C@H](CC(C)C)NC(=O)[C@H](CCCCN)NC(=O)[C@H](C)NC(=O)[C@@H]3CCCN3C(=O)[C@@H]3CCCN3C(=O)[C@H](CCCCN)NC(=O)[C@H](CCCCN)NC(=O)[C@H](CO)NC(=O)[C@H](CCC(=O)O)NC(=O)[C@H](CCCCN)NC(=O)[C@H](CCCNC(=N)N)NC(=O)[C@H](CCC(N)=O)NC(=O)[C@H](CCC(N)=O)NC(=O)[C@@H](NC(=O)[C@H](CCCNC(=N)N)NC(=O)[C@H](CCC(N)=O)NC(=O)[C@H](Cc3c[nH]cn3)NC(=O)[C@H](CCC(=O)O)NC(=O)[C@@H]3CCCN3C(=O)[C@H](CO)NC(=O)[C@H](CC(C)C)NC(=O)[C@H](Cc3ccccc3)NC(=O)[C@H](CNC(=O)CCCCCCC)NC(=O)[C@H](CO)NC(=O)CN)C(C)C)C(=O)O)C2=O)C/C1=C/C=C1\CCC[C@]2(C)[C@@H]([C@H](C)CCCC(C)(C)O)CC[C@@H]12` (stereo partly drawn), protein level read “no effect” (western blot, item: PGC-1α; mice, LLC tumour-bearing, gastrocnemius/plantaris muscle; daily or every other day).
`NC(=O)c1cnc2[nH]ccc2c1N[C@@H]1[C@@H]2CC3C[C@H]1C[C@@](O)(C3)C2`: “change from baseline” 0.32% (flow cytometry, item: CD4+ central memory T cells; Japanese healthy subjects, peripheral blood; oral, 30 mg twice daily, day 7).
`CC(C)NCC(O)c1ccc(O)c(O)c1` (stereo not drawn) gave a sarcomere length of 1.72 µm (ventricular cardiomyocytes, C57BL/6 mouse; dose not given, 0.072 s).
The inhibition of `CNCc1cc(-c2ccccc2F)n(S(=O)(=O)c2cccnc2)c1` is reported as 38.3% (esophageal lesions; rat reflux esophagitis model; oral, 1 mg/kg).
With `CN[C@@H]1COc2c(S(=O)(=O)NC(=O)Nc3c4c(cc5c3CCC5)CCC4)cnn2C1` the inhibition was 94.2% (item: IL-18; human participants, whole blood ex vivo; 300 mg twice daily, multiple doses, 8 h, IL-18, circulating, adjusted for, with: LPS/ATP; reference: baseline).
With `Cn1cc([C@H]2C[C@H]3CSC(N)=N[C@@]3(c3ccc(F)cc3F)CO2)cn1` the Aβ40 level was 1.98 ng/mL (item: Aβx-40; Mus musculus wild-type, cerebrospinal fluid; subcutaneous, 50 mg/kg, 18 h).

For quick reference, copied from above:
The inhibition of `CNCc1cc(-c2ccccc2F)n(S(=O)(=O)c2cccnc2)c1` is reported as 38.3% (esophageal lesions; rat reflux esophagitis model; oral, 1 mg/kg).
`N#Cc1ccc2c(-c3ccncc3)c(-c3ccc(F)cc3)nn2c1`: “log2 fold change” 0.155 (kinase binding, competitor, MIB/MS competition, item: FPK1; Candida albicans cell lysate; 100 nM; reference: DMSO).
